Values quoted from earlier work that unrelated publications cite.
Protocols differ between the studies behind these lines. ± marks the error that the study gave.
Slc6a3: Sodium-dependent dopamine transporter (Slc6a3, Rattus norvegicus, UniProt P23977)
Sequence of UniProt P23977 (whole entry, looked up): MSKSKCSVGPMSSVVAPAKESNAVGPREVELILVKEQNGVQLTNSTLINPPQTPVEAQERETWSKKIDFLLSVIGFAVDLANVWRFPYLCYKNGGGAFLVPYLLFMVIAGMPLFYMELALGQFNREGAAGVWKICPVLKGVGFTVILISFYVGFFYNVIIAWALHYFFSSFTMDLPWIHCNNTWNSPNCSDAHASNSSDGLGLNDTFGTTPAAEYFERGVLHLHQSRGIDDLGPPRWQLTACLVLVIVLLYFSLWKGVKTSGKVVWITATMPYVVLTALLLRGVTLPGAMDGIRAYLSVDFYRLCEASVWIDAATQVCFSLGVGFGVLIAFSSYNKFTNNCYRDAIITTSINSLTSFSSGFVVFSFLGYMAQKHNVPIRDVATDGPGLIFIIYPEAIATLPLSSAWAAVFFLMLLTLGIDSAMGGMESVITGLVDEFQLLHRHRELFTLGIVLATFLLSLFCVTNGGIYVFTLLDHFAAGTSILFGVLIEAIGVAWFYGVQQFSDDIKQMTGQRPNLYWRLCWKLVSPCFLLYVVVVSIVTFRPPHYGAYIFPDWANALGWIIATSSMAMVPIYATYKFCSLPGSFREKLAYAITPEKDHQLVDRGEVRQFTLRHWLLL
Slc6a2: Transporter (Slc6a2, Rattus norvegicus, UniProt Q63380)
Sequence of UniProt P23975 (whole entry, looked up): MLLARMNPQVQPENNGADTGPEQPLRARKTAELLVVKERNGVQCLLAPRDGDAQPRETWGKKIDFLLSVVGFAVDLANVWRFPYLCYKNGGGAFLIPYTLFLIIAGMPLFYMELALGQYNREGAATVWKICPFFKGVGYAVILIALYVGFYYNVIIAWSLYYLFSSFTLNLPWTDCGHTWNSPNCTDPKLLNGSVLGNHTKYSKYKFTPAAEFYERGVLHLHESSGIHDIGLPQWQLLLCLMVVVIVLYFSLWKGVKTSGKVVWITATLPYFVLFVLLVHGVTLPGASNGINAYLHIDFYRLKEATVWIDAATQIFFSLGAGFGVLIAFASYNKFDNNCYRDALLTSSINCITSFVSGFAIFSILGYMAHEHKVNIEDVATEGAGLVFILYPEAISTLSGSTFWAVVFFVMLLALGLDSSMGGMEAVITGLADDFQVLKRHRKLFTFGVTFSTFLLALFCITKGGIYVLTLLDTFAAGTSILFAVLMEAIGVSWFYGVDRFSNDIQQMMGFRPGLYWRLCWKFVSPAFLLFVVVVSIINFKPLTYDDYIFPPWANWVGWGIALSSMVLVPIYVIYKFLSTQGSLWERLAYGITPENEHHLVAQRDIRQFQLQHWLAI
Sequence of UniProt P28221 (whole entry, looked up): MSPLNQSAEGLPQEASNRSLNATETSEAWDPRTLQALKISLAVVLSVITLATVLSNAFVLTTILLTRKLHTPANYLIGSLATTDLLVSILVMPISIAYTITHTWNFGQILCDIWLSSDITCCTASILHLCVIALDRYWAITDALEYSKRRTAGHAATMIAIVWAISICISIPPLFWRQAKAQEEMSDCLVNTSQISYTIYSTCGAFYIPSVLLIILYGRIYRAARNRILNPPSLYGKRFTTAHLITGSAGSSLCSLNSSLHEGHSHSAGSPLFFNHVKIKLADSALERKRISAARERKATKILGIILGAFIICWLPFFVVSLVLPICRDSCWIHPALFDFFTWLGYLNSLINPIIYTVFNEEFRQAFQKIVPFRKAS
Sequence of UniProt P47746 (whole entry, looked up): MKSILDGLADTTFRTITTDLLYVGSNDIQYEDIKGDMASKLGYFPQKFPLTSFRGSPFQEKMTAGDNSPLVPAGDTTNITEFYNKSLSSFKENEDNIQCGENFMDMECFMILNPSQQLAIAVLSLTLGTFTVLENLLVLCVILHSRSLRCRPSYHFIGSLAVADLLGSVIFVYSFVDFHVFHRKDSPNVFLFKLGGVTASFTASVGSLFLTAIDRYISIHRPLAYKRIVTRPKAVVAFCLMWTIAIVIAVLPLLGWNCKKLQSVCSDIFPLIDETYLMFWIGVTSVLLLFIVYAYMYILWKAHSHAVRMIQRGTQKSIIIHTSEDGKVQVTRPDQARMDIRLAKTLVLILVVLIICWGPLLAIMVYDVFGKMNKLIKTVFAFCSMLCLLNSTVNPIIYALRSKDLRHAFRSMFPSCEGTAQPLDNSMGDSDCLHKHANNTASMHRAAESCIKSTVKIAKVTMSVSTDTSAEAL
Sequence of UniProt Q9JI35 (whole entry, looked up): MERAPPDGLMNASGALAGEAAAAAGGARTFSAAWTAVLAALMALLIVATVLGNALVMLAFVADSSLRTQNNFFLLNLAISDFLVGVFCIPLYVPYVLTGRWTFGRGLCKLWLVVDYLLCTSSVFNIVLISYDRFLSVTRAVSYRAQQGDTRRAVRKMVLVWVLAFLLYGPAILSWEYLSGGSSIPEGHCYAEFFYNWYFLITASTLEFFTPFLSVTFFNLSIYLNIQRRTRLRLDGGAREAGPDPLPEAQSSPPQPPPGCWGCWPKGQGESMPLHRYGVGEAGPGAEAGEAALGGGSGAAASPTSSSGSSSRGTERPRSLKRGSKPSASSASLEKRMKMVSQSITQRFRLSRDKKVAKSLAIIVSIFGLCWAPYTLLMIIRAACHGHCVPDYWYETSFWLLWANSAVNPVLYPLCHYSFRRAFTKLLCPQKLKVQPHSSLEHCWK
Sequence of UniProt Q9R0C9 (whole entry, looked up): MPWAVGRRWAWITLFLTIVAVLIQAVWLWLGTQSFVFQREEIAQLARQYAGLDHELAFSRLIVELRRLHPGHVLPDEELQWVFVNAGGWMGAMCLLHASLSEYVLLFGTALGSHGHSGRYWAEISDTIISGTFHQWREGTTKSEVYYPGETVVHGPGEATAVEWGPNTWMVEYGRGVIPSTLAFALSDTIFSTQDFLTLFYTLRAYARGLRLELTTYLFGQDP

C=CCN(CC=C)CCc1c[nH]c2ccc(Br)cc12  Ki (Histamine H3 receptor (Cavia porcellus, UniProt Q9JI35)): 1500 nM
COC(=O)[C@H]1[C@@H](OC(=O)c2ccccc2)C[C@@H]2CC[C@H]1N2C  EC50 (Slc6a3; transporter-mediated release, substrate; rat brain synaptosomes): inactive
CCCCCn1cc(C(=O)c2cccc3ccccc23)c2ccccc21  Ki (cannabinoid CB1 receptor): 9 nM
Oc1ccc2c3c1O[C@H]1c4[nH]c5c(c4C[C@@]4(O)[C@@H](C2)N(CC2CC2)CC[C@]314)C[C@@]1(O)[C@H]2Cc3ccc(O)c4c3[C@@]1(CCN2CC1CC1)[C@H]5O4  Ki (mu opioid receptor): 1.2 to 102 nM
C=CCN(CC=C)CCc1c[nH]c2ccccc12  Ki (Sigmar1 (Rattus norvegicus, UniProt Q9R0C9); binding, radioligand binding; rat brain; together with: [3H](+)-pentazocine): 101 nM
Nc1ncnc2c1nc(Br)n2C1OC2COP(O)(=S)OC2C1O (stereo not shown)  Km or Ki (PDE10; cyclic nucleotide hydrolysis, substrate or inhibitor, isothermal titration calorimetry): 28100 nM
C=CCN(CC=C)CCc1c[nH]c2ccc(OC)cc12  Ki (HTR1D (Homo sapiens, UniProt P28221)): 107 nM
COC(=O)[C@H]1[C@@H](c2ccc(F)cc2)C[C@@H]2CC[C@H]1N2C  Ki (SLC6A2 (Homo sapiens, UniProt P23975)): 26 nM
C[C@]12CCC(=O)C=C1CC[C@@H]1[C@@H]2CC[C@]2(C)C(=O)CC[C@@H]12  Ki (human AKR1D1; substrate): 4300 ± 1300 nM
CNC(C)C(=O)c1ccc(C)cc1 (stereo not shown)  IC50 (serotonin transporter, rat; serotonin uptake, inhibitor; brain synaptosomes): 422 ± 26 nM
COC(=O)[C@H]1C(c2ccc(I)cc2)C[C@@H]2CC[C@H]1N2C (stereo partly shown)  Ki (Slc6a2; reuptake, inhibitor; rat brain synaptosomes): 5.89 ± 0.53 nM
CN1C(=O)CN=C(c2ccccc2)c2cc(Cl)ccc21  Ki (GABA-A receptor benzodiazepine site (zebrafish); zebrafish whole brain membranes; together with: [3H]flunitrazepam): 23 ± 4 nM
COc1ccc2c(c1)c(CCN1CCOCC1)c(C)n2C(=O)c1cccc(Cl)c1Cl  Ki (cannabinoid CB2 receptor (human); binding): 4 to 12 nM
C[C@]12CC[C@H]3[C@@H](CCC4=CC(=O)CC[C@@]43C)[C@@H]1CC[C@@H]2O  Ki (human AKR1D1; substrate): 14500 ± 5800 nM
COc1ccc(CC[C@H]2CCC[C@@H](CCc3ccc(OC)cc3)N2C[C@@H](O)CO)cc1 (relative stereo)  Ki (Slc6a3; inhibitor): 1440 nM
CCCCCCCCCCCCCCCCCCSC1CC(=O)N(CCC(=O)NCCOCCOCCOCCOCCOCCOCCOCCOCCOCCOCCOCCOCCOCCOCCOCCOCCOCCOCCOCCOCCOCCOCCOCCOCCC(=O)NC(COCCC(=O)NCCOCCOCCOCCOCCC(=O)NCCCC[C@@H](NC(=O)CNC(=O)[C@@H](CC(C)C)NC(=O)[C@@H](CCC(=O)O)NC(=O)[C@H]2CSSC[C@@H](NC(=O)[C@H]3CCCN3C(=O)[C@@H](Cc3c[nH]cn3)NC(C)=O)C(=O)N[C@H](CC(=O)O)C(=O)N[C@H](Cc3ccc(O)cc3)C(=O)N3CCC[C@@H]3C(=O)N[C@H](CCC(=O)O)C(=O)N[C@H](Cc3c[nH]c4ccccc34)C(=O)N[C@H](CCC(N)=O)C(=O)N[C@H](Cc3c[nH]c4ccccc34)C(=O)N[C@H](CC(C)C)C(=O)N2)C(N)=O)(COCCC(=O)NCCOCCOCCOCCOCCC(=O)NCCCC[C@@H](NC(=O)CNC(=O)[C@@H](CC(C)C)NC(=O)[C@@H](CCC(=O)O)NC(=O)[C@H]2CSSC[C@@H](NC(=O)[C@H]3CCCN3C(=O)[C@@H](Cc3c[nH]cn3)NC(C)=O)C(=O)N[C@H](CC(=O)O)C(=O)N[C@H](Cc3ccc(O)cc3)C(=O)N3CCC[C@@H]3C(=O)N[C@H](CCC(=O)O)C(=O)N[C@H](Cc3c[nH]c4ccccc34)C(=O)N[C@H](CCC(N)=O)C(=O)N[C@H](Cc3c[nH]c4ccccc34)C(=O)N[C@H](CC(C)C)C(=O)N2)C(N)=O)COCCC(=O)NCCOCCOCCOCCOCCC(=O)NCCCC[C@@H](NC(=O)CNC(=O)[C@@H](CC(C)C)NC(=O)[C@@H](CCC(=O)O)NC(=O)[C@H]2CSSC[C@@H](NC(=O)[C@H]3CCCN3C(=O)[C@@H](Cc3c[nH]cn3)NC(C)=O)C(=O)N[C@H](CC(=O)O)C(=O)N[C@H](Cc3ccc(O)cc3)C(=O)N3CCC[C@@H]3C(=O)N[C@H](CCC(=O)O)C(=O)N[C@H](Cc3c[nH]c4ccccc34)C(=O)N[C@H](CCC(N)=O)C(=O)N[C@H](Cc3c[nH]c4ccccc34)C(=O)N[C@H](CC(C)C)C(=O)N2)C(N)=O)C1=O (stereo partly shown)  IC50 (HIV-1; viral entry, luciferase reporter; HOS-CD4-CCR5, JRFL Env pseudovirus): 0.087 ± 0.012 nM
CCCCCCC(C)(C)c1ccc([C@@H]2C[C@H](O)CC[C@H]2CCCO)c(O)c1  Ki (Cnr1 (Mus musculus, UniProt P47746); radioligand binding; mouse brain homogenate; together with: [3H]CP radioligand): 0.26 ± 0.1 nM
CCCCCn1cc(C(=O)c2ccc(OC)c3ccccc23)c2ccccc21  Ki (cannabinoid CB1 receptor): 1.2 nM
CCCCCn1cc(C(=O)Cc2ccccc2C)c2ccccc21  Ki (cannabinoid CB2 receptor; binding): 146 ± 36 nM
CNC(C)C(=O)c1ccc2c(c1)OCO2 (stereo not shown)  IC50 (Slc6a2): 1030 ± 162 nM
COC1C2OP(O)(=S)OCC2OC1n1c(Sc2ccc(Cl)cc2)nc2c(N)ncnc21 (stereo not shown)  Km or Ki (PDE10; cyclic nucleotide hydrolysis, substrate or inhibitor, isothermal titration calorimetry): 2420 nM
CNC(C)Cc1ccc2c(c1)OCO2 (stereo not shown)  Ki (alpha2-adrenoceptor; binding; frontal cortex homogenate; together with: [3H]p-aminoclonidine): 3200 nM

Some of these lines once more:
CCCCCn1cc(C(=O)Cc2ccccc2C)c2ccccc21  Ki (cannabinoid CB2 receptor; binding): 146 ± 36 nM
COC(=O)[C@H]1C(c2ccc(I)cc2)C[C@@H]2CC[C@H]1N2C (stereo partly shown)  Ki (Slc6a2; reuptake, inhibitor; rat brain synaptosomes): 5.89 ± 0.53 nM
CNC(C)C(=O)c1ccc2c(c1)OCO2 (stereo not shown)  IC50 (Slc6a2): 1030 ± 162 nM
